Assay results of several laboratories.
Every numbered part comes from another study and shows a few of its results, in no order. Changes are numbered by the printed parent chain.
UniProt Q8NE63, sequence (whole entry, looked up): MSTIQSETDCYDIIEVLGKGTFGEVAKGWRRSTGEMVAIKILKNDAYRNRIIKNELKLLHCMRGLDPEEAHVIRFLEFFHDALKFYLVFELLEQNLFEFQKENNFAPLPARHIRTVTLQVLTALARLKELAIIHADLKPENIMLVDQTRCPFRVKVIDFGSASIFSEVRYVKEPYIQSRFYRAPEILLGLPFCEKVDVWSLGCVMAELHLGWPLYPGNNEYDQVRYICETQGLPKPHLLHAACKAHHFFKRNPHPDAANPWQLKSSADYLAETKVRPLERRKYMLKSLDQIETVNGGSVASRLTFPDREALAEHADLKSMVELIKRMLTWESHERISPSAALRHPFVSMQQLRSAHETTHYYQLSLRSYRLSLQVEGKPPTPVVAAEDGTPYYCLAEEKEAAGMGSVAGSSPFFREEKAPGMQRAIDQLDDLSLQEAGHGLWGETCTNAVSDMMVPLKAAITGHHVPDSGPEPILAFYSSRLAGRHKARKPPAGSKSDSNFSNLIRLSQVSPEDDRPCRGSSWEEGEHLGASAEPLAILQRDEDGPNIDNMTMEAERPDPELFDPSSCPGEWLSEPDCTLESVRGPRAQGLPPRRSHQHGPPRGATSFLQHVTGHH
UniProt O00444, sequence (whole entry, looked up): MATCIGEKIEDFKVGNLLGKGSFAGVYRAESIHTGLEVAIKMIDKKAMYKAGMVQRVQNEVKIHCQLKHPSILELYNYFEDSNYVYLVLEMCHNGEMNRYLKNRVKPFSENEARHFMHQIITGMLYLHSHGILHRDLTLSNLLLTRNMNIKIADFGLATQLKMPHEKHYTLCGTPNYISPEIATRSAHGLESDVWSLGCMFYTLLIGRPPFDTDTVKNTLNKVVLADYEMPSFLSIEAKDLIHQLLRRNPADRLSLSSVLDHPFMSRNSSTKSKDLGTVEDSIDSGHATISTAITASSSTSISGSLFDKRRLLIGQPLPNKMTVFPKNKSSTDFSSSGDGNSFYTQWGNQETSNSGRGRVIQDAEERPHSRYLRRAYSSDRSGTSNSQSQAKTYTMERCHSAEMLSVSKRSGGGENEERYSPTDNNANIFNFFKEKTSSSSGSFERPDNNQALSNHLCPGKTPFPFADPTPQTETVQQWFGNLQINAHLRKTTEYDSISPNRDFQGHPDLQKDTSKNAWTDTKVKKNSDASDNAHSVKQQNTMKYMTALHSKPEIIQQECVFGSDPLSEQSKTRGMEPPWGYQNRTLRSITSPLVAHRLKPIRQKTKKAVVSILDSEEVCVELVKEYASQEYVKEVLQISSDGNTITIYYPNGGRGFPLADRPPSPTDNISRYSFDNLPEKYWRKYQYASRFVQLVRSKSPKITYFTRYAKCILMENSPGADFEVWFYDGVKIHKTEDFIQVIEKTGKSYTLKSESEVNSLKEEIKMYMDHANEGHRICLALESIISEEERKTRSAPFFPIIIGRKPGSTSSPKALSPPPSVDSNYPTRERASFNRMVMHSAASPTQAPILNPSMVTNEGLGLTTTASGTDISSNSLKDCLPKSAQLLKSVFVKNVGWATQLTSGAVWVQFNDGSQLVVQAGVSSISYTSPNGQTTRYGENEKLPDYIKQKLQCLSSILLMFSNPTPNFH
UniProt P36897, sequence (whole entry, looked up): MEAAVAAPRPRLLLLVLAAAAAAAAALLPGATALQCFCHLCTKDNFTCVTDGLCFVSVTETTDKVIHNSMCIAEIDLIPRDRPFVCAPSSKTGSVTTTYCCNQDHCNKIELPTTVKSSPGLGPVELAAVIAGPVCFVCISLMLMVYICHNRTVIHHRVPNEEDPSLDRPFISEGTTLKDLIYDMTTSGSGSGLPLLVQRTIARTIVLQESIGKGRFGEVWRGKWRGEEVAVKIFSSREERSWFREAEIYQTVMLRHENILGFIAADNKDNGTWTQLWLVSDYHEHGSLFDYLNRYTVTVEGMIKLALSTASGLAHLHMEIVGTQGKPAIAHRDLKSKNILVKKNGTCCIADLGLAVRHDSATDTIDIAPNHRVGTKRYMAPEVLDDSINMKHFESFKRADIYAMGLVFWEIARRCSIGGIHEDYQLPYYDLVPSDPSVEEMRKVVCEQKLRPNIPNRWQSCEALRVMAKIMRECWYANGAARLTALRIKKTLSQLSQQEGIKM

Block 1
Host: human
Sample: microsomes or S9
Concentration: 2 µM
Time: 0.5 h
Endpoint: remaining compound
Cc1ccc(S(=O)(=O)N2c3c(c4ccc(Br)cc4n3C)CC=CC2c2ccccc2)cc1 (centres unmarked): 75.1%
COC(=O)c1ccc(/C=C(\COc2cccc3ccccc23)CN(CCCN(C)C)C(=O)OC(C)(C)C)cc1: 45.7%
COCCn1cc(C(=O)NCc2nc3ccccc3[nH]2)c2ccccc2c1=O: 52.5%

Block 2
Target: Interferon regulatory factor 5, full length, phosphomimetic (IRF5, Homo sapiens, UniProt Q13568-2, residues 1-514, K96S/S451D/S453D/S456D/S462D)
Technique: protein-binding microarray
Molecule type: double-stranded DNA, one strand shown
Sample: in vitro
Concentration: 250 nM
Notes: 60-bp whole probe
With: salmon DNA 0.4 mg/ml
Relative to: random background probes
Reading: higher = stronger binding
Endpoint: log fluorescence
Shared flanks, not repeated: GCCTAGCAC … GTCTTGATTCGCTTGACGCTGCTG
TCAGTTTCCAAATTGTCACTGTGCTAG: 1.24 z-score
TTAGGACTGGGTTTCCGTTAGTGCTAG: 0.207 z-score
AACGATATCAGTTTCGAGACGTGCTAG: 7.12 z-score
TTAGGTCTCCTTATCCTTTTGTGCTAG: 0.109 z-score
TTACATTTATATCTTTGCTTGTGCTAG: 1.28 z-score
GTAGGTTTCGGGTTTCGGTTAGTGCTA: 9.76 z-score
GACGATTTCAGCTTCGAGACGTGCTAG: 0.49 z-score
TTAGGTATCGACTATCGGTCAGTGCTA: 7.59 z-score

Block 3
Change: S9K
Target: ABI1, truncated, D143A, DHFR fusion (Arabidopsis thaliana)
Technique: DHFR PCA, deep sequencing
Sample: yeast
Notes: methotrexate growth selection, single substitutions
Relative to: wild-type fitted maximum
Reading: higher = stronger binding
Endpoint: relative binding score
Parent: PYL1, truncated, DHFR fusion (Arabidopsis thaliana); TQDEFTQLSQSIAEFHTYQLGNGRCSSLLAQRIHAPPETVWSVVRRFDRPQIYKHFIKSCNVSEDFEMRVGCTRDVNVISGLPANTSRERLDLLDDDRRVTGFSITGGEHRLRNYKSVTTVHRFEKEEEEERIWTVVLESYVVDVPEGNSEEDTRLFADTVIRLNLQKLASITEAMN
with: (+)-ABA 0.032 µM: 63.1%
with: (+)-ABA 200 µM: 109%
with: (+)-ABA 4.8 µM: 83.9%
with: (+)-ABA 710 µM: 108%
with: (+)-ABA 0.0091 µM: 68.1%
with: (+)-ABA 0.11 µM: 63.4%

Block 4
Target: Serine/threonine-protein kinase B-raf (BRAF, Homo sapiens, UniProt P15056)
UniProt P15056, sequence (whole entry, looked up): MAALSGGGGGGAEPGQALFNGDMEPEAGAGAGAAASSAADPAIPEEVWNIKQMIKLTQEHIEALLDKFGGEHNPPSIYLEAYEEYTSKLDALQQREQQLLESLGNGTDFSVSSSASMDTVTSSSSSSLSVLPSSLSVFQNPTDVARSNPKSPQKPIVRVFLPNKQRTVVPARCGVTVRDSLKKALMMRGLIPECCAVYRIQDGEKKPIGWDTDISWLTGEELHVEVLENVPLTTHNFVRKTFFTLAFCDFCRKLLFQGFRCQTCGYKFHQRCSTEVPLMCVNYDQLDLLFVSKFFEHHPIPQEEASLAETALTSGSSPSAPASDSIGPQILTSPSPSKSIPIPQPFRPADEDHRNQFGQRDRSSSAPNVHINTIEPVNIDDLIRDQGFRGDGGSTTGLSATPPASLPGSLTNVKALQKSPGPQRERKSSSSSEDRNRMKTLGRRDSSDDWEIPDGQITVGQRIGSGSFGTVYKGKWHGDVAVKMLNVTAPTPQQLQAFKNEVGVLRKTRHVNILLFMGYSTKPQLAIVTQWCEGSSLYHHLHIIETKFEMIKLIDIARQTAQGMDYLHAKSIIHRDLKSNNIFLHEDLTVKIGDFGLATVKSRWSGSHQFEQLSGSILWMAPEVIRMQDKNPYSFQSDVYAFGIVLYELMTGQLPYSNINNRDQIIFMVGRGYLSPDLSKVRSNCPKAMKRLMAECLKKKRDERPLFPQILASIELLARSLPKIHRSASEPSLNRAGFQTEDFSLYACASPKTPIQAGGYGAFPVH
Read-out: enzyme activity
Mode: inhibitor
Concentration: 0.5 µM
Relative to: control
Endpoint: remaining activity
CCOC(=O)c1c(C)[nH]c(/C=C2\C(=O)Nc3ccccc32)c1C: 96.7%
Nc1[nH]nc2nc3ccccc3nc12: 102%
Oc1ccc(-c2nc(-c3ccncc3)c(-c3ccc(F)cc3)[nH]2)cc1: 60.5%
OCC(O)CCON=C1C(c2c(O)[nH]c3ccccc23)=Nc2ccccc21 (centres unmarked): 103%
CC(C)[C@H](CO)Nc1nc(Nc2cc(N)cc(Cl)c2)c2ncn(C(C)C)c2n1: 97.5%
C#Cc1cccc(Nc2ncnc3cc(OCCOC)c(OCCOC)cc23)c1: 93.5%
Cc1cccc(-c2[nH]c(C(C)(C)C)nc2-c2ccc3c(c2)OCO3)n1: 111%
Cn1c2ccccc2c2c3c(c4c5ccccc5n(CCC#N)c4c21)CNC3=O: 110%
O=C(O)c1ccc2c3c1cccc3c(=O)n1c3ccccc3nc21: 95.1%
O=S(=O)(c1cccc2cnccc12)N1CCCNCC1: 97.7%
O=C(CCCc1ccc(-c2ccccc2F)cc1)Nc1ccc(O)cc1: 93%
N#CC(C#N)=C(N)/C(C#N)=C/c1ccc(O)cc1: 90.1%
COc1cc2ncnc(Nc3ccc(F)c(Cl)c3)c2cc1OCCCN1CCOCC1: 95.8%
Cn1sc(=O)n(Cc2ccccc2)c1=O: 98.1%
NCCNc1ncc(C(N)=O)c(Nc2cccc(C(F)(F)F)c2)n1: 93.8%
COc1ccc(OC)c2c(=S)c3ccccc3[nH]c12: 88.5%
COc1cc2ncnc(Nc3ccc(Oc4ccccc4)cc3)c2cc1OC: 79.6%
O=C(Nc1cccc(Nc2cc(Nc3cccc(C(F)(F)F)c3)ncn2)c1)C1CC1: 96.8%
COc1ccc(CNC(=O)Nc2ncc([N+](=O)[O-])s2)cc1: 93.4%
CN(C)c1ccc(C=C2C(=O)Nc3ccccc32)cc1: 101%
Nc1ncnc2n[nH]c(Nc3ccc(F)cc3)c12: 91.7%

Block 5
Structure (SMILES): O=C(NC[C@@H]1[C@H]2CN(C(=O)OCc3cc(C(F)(F)F)cc(C(F)(F)F)c3)C[C@@H]12)c1ccc2[nH]nnc2c1
Read-out: cell-free assay
Technique: competition with immobilised ligand
Concentration: 1 µM
Endpoint: remaining binding
Serine/threonine-protein kinase PLK4 (PLK4, Homo sapiens, UniProt O00444): 82%
TGF-beta receptor type-1 (TGFBR1, Homo sapiens, UniProt P36897): 97%
Homeodomain-interacting protein kinase 4 (HIPK4, Homo sapiens, UniProt Q8NE63): 100%

Mixed results
SEPTIN7 (Homo sapiens, UniProt Q16181) — interaction screen (SEPTIN11 (Homo sapiens, UniProt Q9NVA2); cross-linking MS; hits only): cross-linked
CCOC(=O)C1=C[C@]2(CC)CCCN3CCc4c(n1c1ccccc41)[C@@H]32 — nuclear SOX9 intensity (mouse MPNST tumor cells; high-content immunofluorescence imaging, refers to: nuclear SOX9; 10 µM, 12 h, mean of 2 replicates; relative to: DMSO control, higher = more nuclear SOX9): 97.4 % of DMSO
MCM2 (Homo sapiens, UniProt P49736) — cross-linked residues (GGA1 (Homo sapiens, UniProt Q9UJY5); cross-linking MS; cell fractions; with: DSSO): K896 to K213
NC(=O)c1ccc(-c2nc(-c3ccccn3)c(-c3ccc4c(c3)OCO4)[nH]2)cc1 — nuclear SOX9 intensity (mouse MPNST tumor cells; high-content immunofluorescence imaging, refers to: nuclear SOX9; 10 µM, 12 h, mean of 2 replicates; relative to: DMSO control, higher = more nuclear SOX9): 107 % of DMSO
DNAH8 (Homo sapiens, UniProt Q96JB1) — cross-linked residues (SRRT (Homo sapiens, UniProt Q9BXP5); cross-linking MS; cell fractions; with: DSSO): K1720 to K208
SF3A3 (Homo sapiens, UniProt Q12874) — interaction screen (SF3A1 (Homo sapiens, UniProt Q15459); cross-linking MS; hits only): cross-linked

A few entries again (block 4):
OCC(O)CCON=C1C(c2c(O)[nH]c3ccccc23)=Nc2ccccc21 (centres unmarked): 103%
CC(C)[C@H](CO)Nc1nc(Nc2cc(N)cc(Cl)c2)c2ncn(C(C)C)c2n1: 97.5%
C#Cc1cccc(Nc2ncnc3cc(OCCOC)c(OCCOC)cc23)c1: 93.5%
Cc1cccc(-c2[nH]c(C(C)(C)C)nc2-c2ccc3c(c2)OCO3)n1: 111%
Cn1c2ccccc2c2c3c(c4c5ccccc5n(CCC#N)c4c21)CNC3=O: 110%
O=C(O)c1ccc2c3c1cccc3c(=O)n1c3ccccc3nc21: 95.1%
